Measured values from different studies.
Lines come from different studies, so protocols differ. Numbers after ± are the reported error.
Cell line: NCI-H460

SMILES = CC(=O)O[C@@H]1CC[C@@]2(C)[C@@H](CC[C@]3(C)[C@@H]2C(=O)C=C2[C@@H]4[C@@H](C)[C@H](C)CC[C@]4(C)CC[C@]23C)[C@@]1(C)C(=O)NCCNC(=O)CCCCCCCCCCBr; test = cell growth or viability, MTT; conditions = 48 h; IC50 = > 30 µM
SMILES = COc1ccc2nc(Cl)c(-c3nc4cc(Cl)c(Cl)cc4[nH]3)cc2c1; test = cell growth or viability, MTT; conditions = 48 h; IC50 = 21.1 µM
SMILES = CC(=O)O[C@@H]1CC[C@@]2(C)[C@@H](CC[C@]3(C)[C@@H]2C(=O)C=C2[C@@H]4[C@@H](C)[C@H](C)CC[C@]4(C)CC[C@]23C)[C@@]1(C)C(=O)NCCNC(=O)CC[P+](c1ccccc1)(c1ccccc1)c1ccccc1; test = cell growth or viability, MTT; conditions = 48 h; IC50 = 25.5 µM
SMILES = Cn1[c]([Ir-3]234([NH3+])[n]5c6ccc5C(c5c(F)c(F)c(F)c(F)c5F)=C5C=CC(=[N+]52)C(c2c(F)c(F)c(F)c(F)c2F)=c2ccc([n]23)=C(c2c(F)c(F)c(F)c(F)c2F)C2=[N+]4C(=C6c3c(F)c(F)c(F)c(F)c3F)C=C2)[n+](C)c2ccccc21.F[P-](F)(F)(F)(F)F; test = cytotoxicity; conditions = 1 h, together with: visible light 2.8 mW/cm2; IC50 = 0.04 ± 0.003 µM
SMILES = CC(=O)O[C@@H]1CC[C@@]2(C)[C@@H](CC[C@]3(C)[C@@H]2C(=O)C=C2[C@@H]4[C@@H](C)[C@H](C)CC[C@]4(C)CC[C@]23C)[C@@]1(C)C(=O)NCCNC(=O)CCCCCCCBr; test = cell growth or viability, MTT; conditions = 48 h; IC50 = 15.8 µM
SMILES = CC(C)Cn1cc(-c2nc(Nc3ccc(OCCCCCCC(=O)NO)cc3)ncc2F)nn1; test = cell growth or viability, SRB; conditions = 72 h; IC50 = 1.72 µM
SMILES = CCC1=C(CC)C2=[N+]3C1=Cc1c(CC)c(CC)c4[n]1[Ir-3]31([c]3n(C(C)C)cc[n+]3C(C)C)([c]3n(C(C)C)cc[n+]3C(C)C)[n]3c(c(CC)c(CC)c3=CC3=[N+]1C(=C4)C(CC)=C3CC)=C2.F[P-](F)(F)(F)(F)F; test = cytotoxicity; conditions = 1 h, together with: visible light 2.8 mW/cm2; IC50 = 0.006 ± 0.002 µM
SMILES = O=C(NCCCCCNc1n[n+]([O-])c2ccccc2[n+]1[O-])C(F)(F)F; test = cytotoxicity, MTT; conditions = 24 h, normoxia 20% O2; IC50 = 70.8 ± 27.3 µM
SMILES = Nc1ccccc1NC(=O)c1ccc(Nc2nccc(-c3cn(C4CCCC4)nn3)n2)cc1; test = cell growth or viability, SRB; conditions = 72 h; IC50 = 4.1 µM
SMILES = CN1CCN(c2ccc(C(=O)Nc3n[nH]c4ccc(Cc5cc(F)cc(F)c5)cc34)c(NC3CCOCC3)c2)CC1; test = cell growth or viability, MTT; conditions = 72 h; IC50 = 3.5 µM
SMILES = Fc1ccc2[nH]c(-c3cc4ccccc4nc3Cl)nc2c1; test = cell growth or viability, MTT; conditions = 48 h; IC50 = > 100 µM
SMILES = O=C(CCCCCCOc1ccc(Nc2ncc(F)c(-c3cn(C4CCCCC4)nn3)n2)cc1)NO; test = cell growth or viability, SRB; conditions = 72 h; IC50 = 2.05 µM
SMILES = [Cl][Cu][Cl].c1ccc(-c2nnc(-c3ccc4c(c3)OCO4)[nH]2)nc1; test = cell growth or viability, MTT; conditions = 24 h; IC50 = 4.75 µM
SMILES = CCCCCCCC(=O)NCCNC(=O)[C@]1(C)[C@@H]2CC[C@]3(C)[C@H](C(=O)C=C4[C@@H]5[C@@H](C)[C@H](C)CC[C@]5(C)CC[C@]43C)[C@@]2(C)CC[C@H]1OC(C)=O; test = cell growth or viability, MTT; conditions = 48 h; IC50 = 12.1 µM
SMILES = Cc1ccc2nc(Cl)c(-c3nc4cc(Br)ccc4[nH]3)cc2c1; test = cell growth or viability, MTT; conditions = 48 h; IC50 = > 100 µM
SMILES = CCCCCC(=O)NCCNC(=O)[C@@]1(C)[C@H](O)CC[C@@]2(C)[C@H]1CC[C@]1(C)[C@@H]2C(=O)C=C2[C@@H]3[C@@H](C)[C@H](C)CC[C@]3(C)CC[C@]21C; test = cell growth or viability, MTT; conditions = 48 h; IC50 = 14.3 µM
SMILES = O=C(NCCNc1n[n+]([O-])c2ccccc2[n+]1[O-])C(F)(F)F; test = cytotoxicity, MTT; conditions = 24 h, normoxia 20% O2; IC50 = 44.2 ± 5 µM
SMILES = O=c1[nH]c2ccccc2nc1/C=C/C=C/c1ccccc1; test = cell growth or viability, MTT; conditions = 72 h; IC50 = 14.6 µM
SMILES = Cc1ccc2nc(Cl)c(-c3nc4cc(C)c(C)cc4[nH]3)cc2c1; test = cell growth or viability, MTT; conditions = 48 h; IC50 = > 100 µM
SMILES = C=C1CC23CC4C5C6(C)CC(O)CC57C(C2C(O)C1C(O)C37)N4C6 (centres unmarked); test = cell growth or viability, MTT; IC50 = 14.1 µM
SMILES = CC(=O)O[C@@H]1CC[C@@]2(C)[C@@H](CC[C@]3(C)[C@@H]2C(=O)C=C2[C@@H]4[C@@H](C)[C@H](C)CC[C@]4(C)CC[C@]23C)[C@@]1(C)C(=O)NCCNC(=O)c1ccccc1; test = cell growth or viability, MTT; conditions = 48 h; IC50 = 7.78 µM
SMILES = CCOC12C(O)C(OC)C3(O)CC(C1C3OC(=O)c1ccccc1)C13C(OC)CC(O)C4(COC)CN(C)C1C2C(OC)C43 (centres unmarked); test = cell growth or viability, MTT; IC50 = 18.8 µM
SMILES = COc1ccc2nc(Cl)c(-c3nc4cc(F)ccc4[nH]3)cc2c1; test = cell growth or viability, MTT; conditions = 48 h; IC50 = > 100 µM
SMILES = [NH2][Pt]1([NH2])([Cl])([O]C(=O)C(Cl)Cl)[O]C(=O)C2(CC(=O)C2)C(=O)[O]1; test = cell growth or viability, MTT; IC50 = > 200 µM
SMILES = O=C(NCCCCCCCCNc1n[n+]([O-])c2ccccc2[n+]1[O-])C(F)(F)F; test = cytotoxicity, MTT; test system = 10% FBS medium; conditions = 6 h + 18 h, hypoxia 3% O2; IC50 = 46 ± 24.1 µM
SMILES = N#Cc1c(-c2cccs2)cc(-c2cccc3ccccc23)n2c(Cc3ccccc3)nnc12; test = cell growth or viability, MTT; conditions = 72 h; IC50 = 0.869 µM
SMILES = CC(=O)O[C@@H]1CC[C@@]2(C)[C@@H](CC[C@]3(C)[C@@H]2C(=O)C=C2[C@@H]4[C@@H](C)[C@H](C)CC[C@]4(C)CC[C@]23C)[C@@]1(C)C(=O)NCCNC(=O)CCCCC[P+](c1ccccc1)(c1ccccc1)c1ccccc1; test = cell growth or viability, MTT; conditions = 48 h; IC50 = > 30 µM
SMILES = C=C1C2CC3C4N5CC6(C)CCCC47C6C5CC3(C1O)C7C2 (centres unmarked); test = cell growth or viability, MTT; IC50 = 24.3 µM
SMILES = Cc1cc2nc(-c3cc4cc5c(cc4nc3Cl)OCO5)[nH]c2cc1C; test = cell growth or viability, MTT; conditions = 48 h; IC50 = > 100 µM

Repeated from above:
SMILES = C=C1C2CC3C4N5CC6(C)CCCC47C6C5CC3(C1O)C7C2 (centres unmarked); test = cell growth or viability, MTT; IC50 = 24.3 µM
SMILES = Cc1cc2nc(-c3cc4cc5c(cc4nc3Cl)OCO5)[nH]c2cc1C; test = cell growth or viability, MTT; conditions = 48 h; IC50 = > 100 µM
